Published values collected from several papers.
Protocols differ between the studies behind these lines.
Target: Delta-type opioid receptor (OPRD1, Homo sapiens, UniProt P41143)
Sequence of UniProt P41143 (whole entry, looked up): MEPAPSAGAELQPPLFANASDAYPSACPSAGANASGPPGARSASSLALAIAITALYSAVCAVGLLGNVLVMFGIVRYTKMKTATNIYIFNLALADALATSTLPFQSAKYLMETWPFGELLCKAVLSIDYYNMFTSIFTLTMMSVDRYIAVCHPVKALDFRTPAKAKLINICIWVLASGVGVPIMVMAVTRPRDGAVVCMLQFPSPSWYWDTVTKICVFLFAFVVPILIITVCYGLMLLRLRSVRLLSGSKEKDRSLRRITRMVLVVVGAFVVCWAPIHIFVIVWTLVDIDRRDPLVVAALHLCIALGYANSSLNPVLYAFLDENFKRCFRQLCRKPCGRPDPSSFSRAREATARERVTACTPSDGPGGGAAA

| SMILES | test | system | conditions | endpoint | value |
| --- | --- | --- | --- | --- | --- |
| CC(=O)c1cnc(N)nc1N1CC[C@H]1c1nn2ccc(Cl)c2c(=O)n1-c1ccccc1 | ligand displacement, radioligand |  | 10 µM | inhibition | 11% |
| C[Si](C)(C)C[C@@H](CN)CC(=O)O | ligand displacement, radioligand |  | 75 µM | inhibition | 4% |
| CCC(=O)N(C)c1ccc(Cl)c(Cl)c1 | ligand displacement, radioligand |  | 10 µM | inhibition | < 10% |
| COc1ccc(S(=O)(=O)N2CCc3ccccc3C2)cc1N1CCN(C(=O)c2ccc(F)cc2C(F)(F)F)CC1 | ligand displacement, radioligand |  | 1 µM | inhibition | 6.1% |
| COCC(=O)N1CCc2cc(-c3csc(NC(=O)c4cc(OC)cc(OC)c4)n3)ccc21 | cell-free assay |  | 10 µM | inhibition | -8% |
| O=C1c2sc(-c3ccc(N4CCC(F)C4)nc3F)nc2CCN1c1cccnc1 (centres unmarked) | ligand displacement, radioligand |  | 1 µM | inhibition | 15% |
| COc1ccc(C(=O)Nc2c(-c3cccs3)nc3ccccn23)cc1 | ligand displacement, radioligand |  | 10 µM | inhibition | < 50% |
| COc1ccc(C#CC2=C[C@H]3C[C@@]4(OC(=O)C=C24)[C@H]2CC[C@H](C(OC)OC)N32)cc1 | ligand displacement, radioligand |  | 10 µM | inhibition | -3% |
| CC(=O)C12NC(C)(C)CC1(C)C(=O)C1=C2c2c(c3c4n2C(C)(C)CC2=C4C4(CC(C)(C)NC(C)(C4)C2=O)CC3(C)C)C(=O)C(C)(C)N1 (single isomer, unassigned; (-)) | cAMP level, agonist, LANCE Ultra cAMP | CHO | 50 µM | activation | 1.7% |
| Cn1ccc2cc(-n3c(=O)[nH]c4sc5c(c4c3=O)CCCC5)ccc21 | ligand displacement |  | 10 µM | inhibition | 5% |
| Cc1[nH]nc2c1N=C(c1ccccc1Cl)c1cnc(N3CCOCC3)cc1N2 | cell-free assay |  | 10 µM | inhibition | 1% |
| Brc1ccccc1-c1nnc(CSc2nnnn2-c2ccccc2)o1 | ligand displacement, radioligand |  | 10 µM | inhibition | -7% |
| CO[C@@H](C)c1c(NC(=O)Nc2cnc(-n3nccn3)c(C(F)(F)F)c2)cnc2sc(C)nc12 | ligand displacement, radioligand |  | 10 µM | inhibition | 2.5% |
| COc1ncc2nc(C)n(Cc3ncc(S(N)(=O)=O)cc3F)c2c1-c1ccccc1 | agonist, cell-based |  | 10 µM | activation | -16.4% |

Repeated from above:
| SMILES | test | system | conditions | endpoint | value |
| --- | --- | --- | --- | --- | --- |
| Cc1[nH]nc2c1N=C(c1ccccc1Cl)c1cnc(N3CCOCC3)cc1N2 | cell-free assay |  | 10 µM | inhibition | 1% |
| Brc1ccccc1-c1nnc(CSc2nnnn2-c2ccccc2)o1 | ligand displacement, radioligand |  | 10 µM | inhibition | -7% |
